Results gathered from unrelated publications.
Protocols differ between the studies behind these lines. Several values in a cell are separate wells, animals, samples, runs or records. ± gives the spread as reported.

SMILES | test | system | conditions | Tmax
COc1ccc2nc([S@@+]([O-])Cc3ncc(C)c(OC)c3C)[nH]c2c1 | – | human, dried blood spots | oral, 10 mg omeprazole | 2 h
COc1cc([C@@H]2Oc3ccc([C@H]4Oc5cc(O)cc(O)c5C(=O)[C@@H]4O)cc3O[C@H]2CO)ccc1O | – | OATP1B1/1B3 humanized mice, plasma | oral gavage, 500 mg/kg silymarin, median | 0.25 h
CCCS(=O)(=O)N[C@H]1C[C@@H](N(C)c2ncnc3[nH]ccc23)C1 | – | human, plasma | oral, 200 mg once daily, 4 days, steady state | 1.5 h
N#Cc1cc(NC(=O)[C@H]2c3ccccc3C(=O)N(CC(F)(F)F)[C@@H]2c2cccnc2)ccc1F | – | human, plasma | oral, 1200 mg, median | 1.6 h
CCNCCCNC/C=C\CNCCCNCC | LC-MS/MS | human cancer patients, plasma | intravenous infusion 60 min, 200 mg, median, cycle 1 | 0.75 h
CC(C)(C(=O)NC1C2CC3CC1CC(C(N)=O)(C3)C2)N1CCN(c2ccc(C(F)(F)F)cn2)CC1 (centres unmarked) | measured: metabolite | human, CSF | oral, 10 mg once daily, 5 days, median | 2.5 h
CCn1cc(C(=O)N2CCOCC2)c(=O)c2cc(NC3Cc4ccccc4C3)cnc21 | – | human, fasted | oral suspension, 1200 mg single dose, median | 2 h
C#C[C@]1(COP(=O)(O)OP(=O)(O)O)O[C@@H](n2cnc3c(N)nc(F)nc32)C[C@@H]1O | measured: islatravir triphosphate | human, PBMC | oral, 30 mg single dose | 12 h
NC(CO)(CO)CCc1ccc(Sc2cccc(OCc3ccccc3)c2)cc1Cl | – | human male fasted, whole blood | oral, 3 mg, given alone | 12 h
NC(=O)N1c2ccccc2C=Cc2ccccc21 | – | healthy human subjects, plasma | oral, day 21, twice daily, with glecaprevir and pibrentasvir, median | 4.5 h
CC1(COc2ccc3c(c2)ncn3-c2ccc3cccc(N4CCC(N)CC4)c3n2)COC1 | – | human patients, recurrent/progressive HGG or DIPG, serum | oral, 170 mg/m^2, day 28, median | 4 h
Cc1cn(C(=O)c2c(-c3c(Cl)cc(Cl)cc3Cl)noc2C(C)(C)F)c2cccc(/C=C/C(=O)O)c12 | – | human patients | 500 mg bid, cycle 8 day 1 | 2.05 h
CN(CC#N)C(=O)C[C@H](Nc1nc2ccccc2[nH]1)c1cccc(C(F)(F)F)c1 | – | human | intravenous infusion, 5 mg/kg, 1 mg/mL formulation | 0.48 h
COc1ccc2c3c1O[C@H]1C[C@@H](OC(=O)c4ccccc4)C=C[C@@]31CCN(C)C2 | – | human, plasma | intranasal, 33 mg single dose | 0.5 h
CCCCCCCOc1ccc(CCC(N)(CO)CO)cc1C(F)(F)F.Cl | – | healthy human males, plasma | 0.75 mg, day 21, median | 10 h
Cc1cc(-c2nccc3c2ccn3CC(=O)Nc2ccc(-c3cnccn3)cn2)ccn1 | – | human, plasma | oral, 15 mg once daily, day 16, median | 1.3 h
C[C@@H](Oc1ccc(S(C)(=O)=O)cc1C(=O)N1C[C@@H]2C[C@]2(c2cc(C(F)(F)F)on2)C1)C(F)(F)F | – | healthy human volunteers, plasma | oral, 10 mg single dose, fasted and fed states | 3.5 to 4 h
CN(C)C(=O)c1cc2cnc(Nc3ccc(N4CCNCC4)cn3)nc2n1C1CCCC1 | – | human, mild renal impairment, plasma | oral, 400 mg, median | 2 h
COc1cc(-c2cnc3cc(OCCN4CCOCC4)ccn23)cc2c1C(=O)N(CC(F)(F)F)CC2 | LC-MS | human, plasma | oral, 350 mg, day 5, with: sulfasalazine 1000 mg | 0.5 h
CC(F)(F)c1cc(F)ccc1-c1sc2cc(O)ccc2c1Oc1ccc(/C=C/C(=O)O)cc1 | – | human patients, serum | oral, 400 mg once daily, cycle 1 day 28, fasted, median | 2 h
Cn1ncnc1[C@H]1c2n[nH]c(=O)c3cc(F)cc(c23)N[C@@H]1c1ccc(F)cc1 | – | human patients, plasma | oral, 400 µg/m2 twice daily, day 1, monotherapy, dose level DL2, median | 2 h
Cc1nc(-c2ccc(OCC(C)C)c(C#N)c2)sc1C(=O)O | – | human, plasma | oral, 20 mg once daily, with: verinurad 5 mg | 2.5 h
Cc1cn([C@H]2C[C@H](N=[N+]=[N-])[C@@H](CO)O2)c(=O)[nH]c1=O | – | human, both sexes, PBMCs | oral, 600 mg, single dose | 1.08 ± 0.289 h
CN(C)CCCNC(=O)/C(=C/CCCCC(=O)NO)COc1cccc2ccccc12 | – | human | iv, 312.5 mg/m2, day 1, single dose, mean | 0.52 h
CN1CCC(COc2cnc(-c3cccc(Cn4nc(-c5cccc(C#N)c5)ccc4=O)c3)nc2)CC1 | – | human | 500 mg, alone, median | 8.02 h
Cc1cc(-c2nnc(N)nc2-c2ccc(F)cc2)cc(Cl)n1 | – | human patients, plasma | oral, 75 mg nanosuspension once daily, multiple doses, median | 0.5 h
Cc1noc(C)c1-c1cc(C(O)(c2ccccn2)c2ccccn2)c2nc(C3CC3)[nH]c2c1 | – | human patients, plasma | oral, 6 mg, cycle 1 day 8, monotherapy | 0.8 h

SMILES | test | system | conditions | Tmax
COc1nnc2ccc(N3CCC(c4ccc(OCCN5CCN(C)C(=O)[C@H]5C)cc4)CC3)nn12 | – | human, plasma | oral, 30 mg once daily, single dose, monotherapy | 1 h
C#C[C@]1(CO)O[C@@H](n2cnc3c(N)nc(F)nc32)C[C@@H]1O | – | human, plasma | oral, 100 mg, single dose, median | 0.5 h
C[C@H]1[C@H](OC(=O)CCC(=O)O)O[C@@H]2O[C@@]3(C)CC[C@H]4[C@H](C)CC[C@@H]1[C@@]24OO3 | – | human, both sexes, plasma | oral, dose not given, non-fixed combination | 0.54 h
CC(=O)N1CCC(Nc2cc(C(=O)NC[C@H](O)CN3CCc4ccccc4C3)ncn2)CC1 | – | human | oral, 300 mg, median | 2.17 h
Cc1ncnc2c1ccn2[C@@H]1C[C@H](Oc2cc(C(F)F)c(F)c3c2CNCC3)[C@@H](O)[C@H]1O | – | human, plasma | 8 mg once daily | 2 h and 1 h
CCN1[C@@H](C(=O)NC23CCC(C(=O)O)(CC2)CC3)[C@H](c2cccc(Cl)c2F)[C@]2(C(=O)Nc3cc(Cl)ccc32)C12CCCCC2 | noncompartmental analysis | human, advanced solid tumours, plasma | oral, 100 to 200 mg | 4 to 8 h
COc1ncc(-c2nc3c(n2C(C)C)[C@H](c2ccc(Cl)cc2)N(c2cc(Cl)cn(C)c2=O)C3=O)c(OC)n1 | LC-MS/MS, noncompartmental | human, plasma | oral, 200 mg, C1D1, high-dose, median | 2.1 h
CO[C@@H]1[C@H](OC(=O)N2CC(CCN3CCOCC3)C2)CC[C@]2(CO2)[C@H]1[C@@]1(C)O[C@@H]1CC=C(C)C | – | humans, plasma | subcutaneous, 0.2 mg twice weekly, first dose | 0.5 h
Cc1nc2ccc(F)cc2n1-c1nc(N)c(F)c(Nc2ccc(C(F)(F)F)cc2)n1 | – | human patients, plasma | 200 to 400 mg | ~4 h
COc1cc(C(=O)NC2CCN(C)CC2)c(F)cc1Nc1ncc(C(F)(F)F)c(Oc2cccc3c2C(=O)N(C)C3)n1 | – | human patients, plasma | oral, 300 mg single dose, median | 2.02 h
C[C@H](Oc1ccc(Br)cc1-c1ccon1)C(=O)O | LC-MS/MS, non-compartmental | human, plasma | 400 mg once daily, day 1, multiple ascending dose, median | 2.05 h
Cn1c(=O)oc2ccc(-c3ccc(C[C@@H](C#N)NC(=O)[C@@H]4CNCCCO4)cc3)cc21 | – | human, mild renal impairment, plasma | oral, 25 mg single dose, median | 1 h
Cn1cncc1[C@@](N)(c1ccc(Cl)cc1)c1ccc2c(c1)c(-c1cccc(Cl)c1)cc(=O)n2C | – | human, plasma | oral, 200 mg/m^2, median, first cycle dose | 3 h
CCN1CCN(Cc2ccc(Nc3ncc(F)c(-c4cc(F)c5nc6n(c5c4)[C@H](C)CCC6)n3)nc2)CC1 | – | human, plasma | 200 mg multiple dosing, median | 5.95 h
CC(C)[C@H](N)C(=O)NCCCS(=O)(=O)O | median | human, plasma | oral, 256.5 mg once daily, day 1, fed, capsule | 1 h
C[C@@H](N)c1cc(Cl)ccc1Cn1c(=S)[nH]c(=O)c2[nH]ccc21 | – | human, both sexes, severe renal impairment, plasma | oral, 2.5 mg single dose, median | 1.5 h
C#C[C@]1(COP(=O)(O)O)O[C@@H](n2cnc3c(N)nc(F)nc32)C[C@@H]1O | measured: islatravir triphosphate | human, PBMC | oral, 30 mg single dose | 6 h
CO[C@]1(C(=O)N[C@@H](C)c2ccc(-n3cc(F)cn3)nc2)CC[C@H](c2nc(C)cc(Nc3cc(C)[nH]n3)n2)CC1 | – | human, plasma | oral, 200 mg, median | 2 h
C[C@H](NC(=O)/C(C#N)=C/c1cccc(Br)n1)c1ccccc1 | LC-MS/MS | human, plasma | oral, 1 mg/kg, cycle 1 day 8 | 2 h
N#CCC1CCN(c2nc(Nc3ccc(N4CCC(O)CC4)cc3)c3c(=O)[nH]ncc3n2)CC1 | LC-MS/MS | human, plasma | oral, 20 mg once daily, day 15, median | 2 h
CC1=C(c2cccc(O)c2)[C@H](c2ccc(OCCN3CC(CF)C3)cc2)Oc2ccc(O)cc21 | – | human, plasma | oral, 1000 mg single dose, median | 1.5 h
C#Cc1cccc(Nc2ncnc3cc(OCCOC)c(OCCOC)cc23)c1 | – | human, plasma | oral, 100 mg daily, day 8, median, with: docetaxel | 3 h
COc1cc(C(=O)NC2CCN(C)CC2)c(F)cc1Nc1ncc(C(F)(F)F)c(Oc2cccc3c2C(=O)N(C)C3)n1 | – | human, Taiwanese, plasma | oral, 200 mg single dose, median | 2 h
CN(C)C(=O)c1cc2cnc(Nc3ccc(N4CCNCC4)cn3)nc2n1C1CCCC1 | LC-MS/MS | human, all patients, plasma | oral | 4 h
CCCn1cc(C)c2c(=O)[nH]c(-c3cc(S(=O)(=O)N4CCN(CC)CC4)ccc3OCC)nc21 | – | human, plasma | oral, 100 mg, median, with: alcoholic beverage 0.5 g/kg | 1.25 h
NC[C@@]1(CC(=O)O)[C@@H]2CC[C@H]3C[C@@H]2[C@@H]1C3 | – | human, normal renal function, plasma | oral, 20 mg single dose, median | 1 h

Excerpt of the above:
SMILES | test | system | conditions | Tmax
C#C[C@]1(COP(=O)(O)OP(=O)(O)O)O[C@@H](n2cnc3c(N)nc(F)nc32)C[C@@H]1O | measured: islatravir triphosphate | human, PBMC | oral, 30 mg single dose | 12 h
COc1cc(C(=O)NC2CCN(C)CC2)c(F)cc1Nc1ncc(C(F)(F)F)c(Oc2cccc3c2C(=O)N(C)C3)n1 | – | human patients, plasma | oral, 300 mg single dose, median | 2.02 h
CC(C)[C@H](N)C(=O)NCCCS(=O)(=O)O | median | human, plasma | oral, 256.5 mg once daily, day 1, fed, capsule | 1 h
CCCS(=O)(=O)N[C@H]1C[C@@H](N(C)c2ncnc3[nH]ccc23)C1 | – | human, plasma | oral, 200 mg once daily, 4 days, steady state | 1.5 h
C[C@H](NC(=O)/C(C#N)=C/c1cccc(Br)n1)c1ccccc1 | LC-MS/MS | human, plasma | oral, 1 mg/kg, cycle 1 day 8 | 2 h
CC1(COc2ccc3c(c2)ncn3-c2ccc3cccc(N4CCC(N)CC4)c3n2)COC1 | – | human patients, recurrent/progressive HGG or DIPG, serum | oral, 170 mg/m^2, day 28, median | 4 h
